Measurements pooled from the literature.
Lines come from different studies, so protocols differ. “And” joins repeats or separate records; there may be more than shown. Numbers after ± are the reported error.
T1: RNA, 2'-deoxy at 37-40 (Fusobacterium nucleatum); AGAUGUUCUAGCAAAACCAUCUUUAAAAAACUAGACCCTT

SMILES	target	test	system	setting	how to read	endpoint	value
O=C1CCC(N2Cc3cc(NC(=O)c4cn5ccccc5n4)ccc3C2=O)C(=O)N1 (stereo not drawn)	Cereblon/Casein kinase I alpha (CSNK1A1/CRBN, Homo sapiens, UniProt P48729+Q96SW2)	degrader, Western blot time-course	MOLT-4	1 µM		degradation time	< 3 h
CC(=O)Oc1ccc2c(=O)c(Oc3ccc(Cl)cc3)c(C(F)(F)F)oc2c1	Sodium channel protein type 8 subunit alpha, C-terminal domain (SCN8A, Homo sapiens, UniProt Q9UQD0)	binder, thermal shift		25 µM		delta Tm	0.1 °C
c1coc(-c2n[nH]cc2-c2ccnc3ccccc23)c1	Mitogen-activated protein kinase HOG1 (HOG1, Candida albicans, UniProt Q92207)	kinase binding, MIB/MS competition	Candida albicans lysate	1 µM	reference: DMSO, negative = stronger binding	log2 fold change	-0.25
NCCCC(=O)O	SLC6A6 (Homo sapiens, UniProt P31641, L306A)	binding, microscale thermophoresis		500 µM, room temperature, added: 50 nM labelled protein	higher = more binding	normalised MST signal	0.319
CN1C(C(=O)Nc2ccccn2)=C(O)c2sc(Cl)cc2S1(=O)=O	Nuclear receptor subfamily 4 group A member 1 (NR4A1, Homo sapiens, UniProt P22736)	reporter gene, Gal4 hybrid reporter		30 µM	reference: vehicle	activation	0.64 fold
CCCC[C@@H]1NC(=O)[C@H](Cc2ccc(O)cc2)NC(=O)[C@@H]2CCCN2C(=O)[C@H](CC(=O)O)NC(=O)[C@H](C)NC(=O)[C@H](Cc2ccccc2)NC(=O)[C@@H]2CSCCC(=O)N3CN(CN(C3)C(=O)CCSC[C@@H](C(=O)N[C@@H](C)C(N)=O)NC1=O)C(=O)CCSC[C@H](NC(C)=O)C(=O)N[C@@H](CC(C)(C)C)C(=O)N1CCC[C@H]1C(=O)N[C@@H](CCC(=O)O)C(=O)N[C@H](CCCCNC(=O)CCc1cn(CCOCCOCCOCCN(CCOCCOCCOCCn3cc(CCC(=O)NCCCC[C@H]4NC(=O)[C@H](CCC(=O)O)NC(=O)[C@@H]5CCCN5C(=O)[C@H](CC(C)(C)C)NC(=O)[C@@H](NC(C)=O)CSCCC(=O)N5CN6CN(C5)C(=O)CCSC[C@H](NC(=O)[C@H](Cc5ccc(O)cc5)NC(=O)[C@@H]5CCCN5C4=O)C(=O)N[C@@H](Cc4ccccc4)C(=O)N[C@@H](C)C(=O)N[C@@H](CC(=O)O)C(=O)N4CCC[C@H]4C(=O)N[C@@H](Cc4ccc(O)cc4)C(=O)N[C@@H](CCCC)C(=O)N[C@H](C(=O)N[C@@H](C)C(N)=O)CSCCC6=O)nn3)CCOCCOCCOCC(=O)NCCCNC(=O)Cn3cc(CCC(=O)NCCCNC(=O)COCCOCCOCCN(CCOCCOCCOCCn4cc(CCC(=O)NCCC(=O)N[C@H]5CSCCC(=O)N6CN7CN(C6)C(=O)CCSC[C@H](NC(=O)[C@@H](CC(=O)O)NC(=O)[C@H](Cc6cccc8ccccc68)NC(=O)[C@@H]6CCCN6C5=O)C(=O)N[C@@H](CCSC)C(=O)N[C@@H](CCCCNC(=N)N)C(=O)N[C@@H](CC(=O)O)C(=O)N[C@@H](Cc5c[nH]c6ccccc56)C(=O)N[C@@H](CO)C(=O)N[C@@H]([C@@H](C)O)C(=O)N5CCC[C@H]5C(=O)N5C[C@H](O)C[C@H]5C(=O)N[C@@H](Cc5c[nH]c6ccccc56)C(=O)N[C@H](C(N)=O)CSCCC7=O)nn4)CCOCCOCCOCCn4cc(CCC(=O)NCCC(=O)N[C@H]5CSCCC(=O)N6CN7CN(C6)C(=O)CCSC[C@H](NC(=O)[C@@H](CC(=O)O)NC(=O)[C@H](Cc6cccc8ccccc68)NC(=O)[C@@H]6CCCN6C5=O)C(=O)N[C@@H](CCSC)C(=O)N[C@@H](CCCCNC(=N)N)C(=O)N[C@@H](CC(=O)O)C(=O)N[C@@H](Cc5c[nH]c6ccccc56)C(=O)N[C@@H](CO)C(=O)N[C@@H]([C@@H](C)O)C(=O)N5CCC[C@H]5C(=O)N5C[C@H](O)C[C@H]5C(=O)N[C@@H](Cc5c[nH]c6ccccc56)C(=O)N[C@H](C(N)=O)CSCCC7=O)nn4)nn3)nn1)C(=O)N1CCC[C@H]1C(=O)N[C@@H](Cc1ccc(O)cc1)C(=O)N2	Tumor necrosis factor receptor superfamily member 9/Nectin-4 (Homo sapiens, UniProt Q07011+Q96NY8)	reporter gene, agonist	HT-1376 coculture with reporter cells		reference: background	Emax	48 fold
Cc1cc(Nc2cc(N3CCN(C)CC3)nc(Sc3ccc(NC(=O)C4CC4)cc3)n2)[nH]n1	PRKX (Homo sapiens, UniProt P51817)	kinase activity, KinaseProfiler		0.03 µM, species human	reference: control	remaining activity	95%
Nc1nc(N)c2[nH]cnc2n1	T1, RNA, 2'-deoxy at 37-40 (Fusobacterium nucleatum)	MST		apparent		Kd	610 µM
O=C(Nc1cccc2c(=O)cc(-c3nnn[nH]3)oc12)c1ccc(OCCCCc2ccccc2)cc1	Volume-regulated anion channel subunit LRRC8C, part LRRC8A IL1 chimera (LRRC8C, Homo sapiens, UniProt Q8TDW0, L136K)	ion current, inhibitor, whole-cell patch clamp	HCT LRRC8-/- cells	0.1 µM, +100 mV		inhibition	53.2% and 48.9% and 43.5% and 54.3% and 10.6%
CC(=O)N[C@H](C(=O)N[C@@H](CC(N)=O)C(=O)N[C@@H](CCCCN)C(=O)N1CCC[C@H]1C(=O)N[C@@H](CC(C)C)C(=O)N1CCC[C@H]1C(=O)N1CCC[C@H]1C(=O)N[C@@H](CC(C)C)C(=O)N1CCC[C@H]1C(=O)N[C@H](C(=O)N[C@@H](C)C(N)=O)C(C)C)C(C)C	High osmolarity signaling protein SHO1, SH3 domain (SHO1, Saccharomyces cerevisiae, UniProt P40073)	ligand binding, FTIR spectroscopy, measured: asymmetric stretch band B		pH 7.0, SHO1 complex, added: 4 mM peptide		wavenumber	2242.8 ± 0.5 cm⁻¹
Nc1nnc(-c2cccc(Cl)c2Cl)c(N)n1	SCN5A (Homo sapiens, UniProt Q14524)	sodium current block kinetics		280 µM		slow recovery component	0%
CCCc1ccc(S(=O)(=O)Oc2ccccc2NC(=O)c2ccc3ncccc3c2)cc1	P2X purinoceptor 2 (P2RX2, Homo sapiens, UniProt Q9UBL9)	calcium mobilization	MCF7 stably transfected	100 µM, added: ATP 100 µM		fluorescence increase	77.5 ± 1.45%

Repeated from above:
SMILES	target	test	system	setting	how to read	endpoint	value
CC(=O)Oc1ccc2c(=O)c(Oc3ccc(Cl)cc3)c(C(F)(F)F)oc2c1	Sodium channel protein type 8 subunit alpha, C-terminal domain (SCN8A, Homo sapiens, UniProt Q9UQD0)	binder, thermal shift		25 µM		delta Tm	0.1 °C
